Measured values pooled from the literature.
Each numbered part is a random draw from the data of one study; scales do not carry over between parts. Positions count from the first letter of the parent shown.

Series 1 — technique: competition protein-binding microarray; form: double-stranded DNA, one strand shown; matrix: in vitro; tested at: 2 µM; together with: Pho4 competitor, 0.05 µM; reading: higher = stronger binding; endpoint: fluorescence intensity
Target: Centromere-binding protein 1, full length, His-tagged (CBF1, Saccharomyces cerevisiae, UniProt P17106, residues 1-351)
UniProt P17106, sequence (whole entry, looked up): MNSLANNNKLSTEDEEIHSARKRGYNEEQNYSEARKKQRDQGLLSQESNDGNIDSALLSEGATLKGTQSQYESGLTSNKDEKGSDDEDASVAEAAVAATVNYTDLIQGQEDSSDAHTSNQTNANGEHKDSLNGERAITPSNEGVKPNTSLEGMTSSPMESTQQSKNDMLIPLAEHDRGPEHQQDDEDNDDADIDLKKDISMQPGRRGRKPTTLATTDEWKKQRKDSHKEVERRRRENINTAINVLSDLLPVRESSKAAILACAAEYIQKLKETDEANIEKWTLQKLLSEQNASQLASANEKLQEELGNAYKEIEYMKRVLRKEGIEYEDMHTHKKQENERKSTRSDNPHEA
Notes: whole 60-bp probe, lowest competitor level
GCACCAGGAAGTTGTCATGCTTGATGCTCGGCTCCCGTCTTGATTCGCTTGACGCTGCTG: 72.2 a.u.
CTTTCCCGATCTTGGGATGTGGGTGTAGCACATTTGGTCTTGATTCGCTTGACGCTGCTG: 59.2 a.u.
CTTCTGTAAATTTGGGCGGTGGGTGGACGCGCCCCGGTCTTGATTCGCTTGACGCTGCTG: 71.5 a.u.
TATGCTTTTCTTTTGAACGTGCAAAGCGCAGAGGCAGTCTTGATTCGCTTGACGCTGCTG: 92.7 a.u.
AAATTACTAAGTTTTCACGTGTTTTACCCCGTATGAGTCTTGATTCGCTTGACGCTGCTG: 1280 a.u.
AAAAAGATGCACCATCACGTGCTAAAAATCTAACATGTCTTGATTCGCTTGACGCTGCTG: 4730 a.u.
TACGTTGCTGTATTCCCCGTGGGACATTCTCCAAGTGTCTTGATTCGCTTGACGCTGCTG: 75.2 a.u.
CTTCTGTAAATTTGTCACAGCACTTGACGCGCCCCGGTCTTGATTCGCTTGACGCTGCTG: 87.9 a.u.

Series 2 — technique: protein-binding microarray; form: double-stranded DNA, one strand shown; matrix: in vitro; tested at: 2540 nM top; notes: 60-bp whole probe; together with: salmon DNA 0.4 mg/ml; relative to: random background probes; reading: higher = stronger binding; endpoint: fitted relative affinity; all sequences stand within: GCCTAGCAC … GTCTTGATTCGCTTGACGCTGCTG
Target: Interferon regulatory factor 3, full length, phosphomimetic (IRF3, Homo sapiens, UniProt Q14653, residues 1-427, S386D/S396D/S398D/S402D/T404D/S405D)
Residues (chain): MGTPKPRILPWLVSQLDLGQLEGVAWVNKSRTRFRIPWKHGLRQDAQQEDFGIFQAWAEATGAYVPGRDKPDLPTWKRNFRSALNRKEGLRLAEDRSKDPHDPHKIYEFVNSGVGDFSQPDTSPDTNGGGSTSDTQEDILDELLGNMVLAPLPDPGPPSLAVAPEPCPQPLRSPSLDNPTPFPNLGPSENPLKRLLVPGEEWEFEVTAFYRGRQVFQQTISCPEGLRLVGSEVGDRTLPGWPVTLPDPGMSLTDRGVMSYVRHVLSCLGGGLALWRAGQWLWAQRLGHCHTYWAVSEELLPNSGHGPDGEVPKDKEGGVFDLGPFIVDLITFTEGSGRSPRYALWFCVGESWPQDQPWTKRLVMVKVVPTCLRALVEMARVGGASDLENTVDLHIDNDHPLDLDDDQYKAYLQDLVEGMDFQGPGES
TCATCTTTACTGCTCCAACTGTGCTAG: 1.25 z-score
GACGGTTTCCTTTCCTTGACGTGCTAG: 9.67 z-score
TCAGGTCTCGCTTCATCACTGTGCTAG: 0.699 z-score
GACGGACTGGATACTGGGGACGTGCTA: -0.313 z-score
CACGGTTTCGGGACTGGGGACGTGCTA: 4.15 z-score
TCACTTCCCCATCTTGTACTGTGCTAG: 2.74 z-score
GACGGTCTCGGTCTCGGGCCGTGCTAG: 0.906 z-score
TGTGAAACCTTCAGGCACGTGTGCTAG: 0.254 z-score

Series 3 — technique: RNA Bind-n-Seq; form: RNA; matrix: in vitro; tested at: 365 nM; relative to: no-protein control; reading: higher = stronger binding; endpoint: RBNS enrichment (R)
Target: RNA binding protein fox-1 homolog 2, RRM domain, GST-SBP tag (RBFOX2, Homo sapiens, UniProt O43251-10, residues 100-194)
Notes: natural RNA segment, single round, ends assumed
Residues (chain): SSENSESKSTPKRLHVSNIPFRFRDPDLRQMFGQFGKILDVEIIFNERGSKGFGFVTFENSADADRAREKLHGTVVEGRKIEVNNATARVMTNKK
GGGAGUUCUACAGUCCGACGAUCUGUAGUAUUUCUGUACAUACCUGUUUCCAGCAACUUCAGUGUCAAUGUUUUUGAUUUAUUUGUGUCUUAUAGCUCUAGCUGCUAAUAAAGAUCCCAUGUCCUGCUUUCUCUGGAAUUCUCGGGUGCCAA: 0.241
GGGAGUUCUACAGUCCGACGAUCAGAGAAGUUUGAAUGUUUGUGUCAGUUUUGGGUCAGCCUAGAUAAAGAUGGGAAAGAGGGAGUGUUCCUUAUGUCUUGUUUUGUAAUUGUUUGAGUGGUUUCUAAAAUAUUGGAAUUCUCGGGUGCCAA: 0.651
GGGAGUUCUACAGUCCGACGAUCUCCUCAGGCAGUGCCCUUCCUCCCCACUCUUCCUCCCCACAGACAGGCCUCUGCUCCUGCGCCUGCCUGCAUGCUCUCUCUUGUCGUUGGAGCCUGGAGCCUUGCUCUCUUGGAAUUCUCGGGUGCCAA: 2.17
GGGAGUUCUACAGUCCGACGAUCGCACUUUUGGCUAAAAGUGCGAAUGGAACAUUUUUAGUUGUAGUCUGGGGAAGAAAAGUUAAUGAGGUUUUAAAAAUCAGGUCUUGUCGUGUGGGGAGCUUGCUCCCCCAUGGAAUUCUCGGGUGCCAA: 0.592
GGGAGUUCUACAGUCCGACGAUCUUGGCAGGUGCUUUCGUUGCCAUCUCACUCUGAGGGCAUACCUGGAUGUCCAGGCAAGACUGGGCGAAGUUUCUGAGUGGCCCUUUGUUUAGGUGAUGUCCUCAGACCUGUGGAAUUCUCGGGUGCCAA: 0.323
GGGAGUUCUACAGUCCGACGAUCAGAGCUUGCUCCAGAUUCUGAUGCAUACGGCUAUAUUGGUUUAUGUAGUCAGUUGCAUUCAUUAAAUCAACUUUAUCAUAUGCUCUUUUAAAUGUUUGGUUUAUAUAUUUUGGAAUUCUCGGGUGCCAA: 0.613
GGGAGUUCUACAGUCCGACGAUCUUUGUCUAACUGCUAGUAACCCUACCGAGUUUUAUAUAUGAGUGGGAUACUCAAUCUGGCCUUAAAAAGAUACACAAAGAUGGGCUGUGGGUCCCUGGAAAGGGGGAGAGUGGAAUUCUCGGGUGCCAA: 1.35
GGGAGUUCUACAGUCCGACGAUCGAGGAUCAGAAAGAUACCCCAGCUCCAUCAUAGUUUGAGUCAUGUUUCUAUGCCACUUUGGUCCCCAACCAAAGUGAAUCUGUCCCAUGUUAGGCACUCCUCUGACCUGAUGGAAUUCUCGGGUGCCAA: 0.557

Mixed results
Parent: PafA, mature enzyme, eGFP fusion (Elizabethkingia meningoseptica, UniProt Q9KJX5); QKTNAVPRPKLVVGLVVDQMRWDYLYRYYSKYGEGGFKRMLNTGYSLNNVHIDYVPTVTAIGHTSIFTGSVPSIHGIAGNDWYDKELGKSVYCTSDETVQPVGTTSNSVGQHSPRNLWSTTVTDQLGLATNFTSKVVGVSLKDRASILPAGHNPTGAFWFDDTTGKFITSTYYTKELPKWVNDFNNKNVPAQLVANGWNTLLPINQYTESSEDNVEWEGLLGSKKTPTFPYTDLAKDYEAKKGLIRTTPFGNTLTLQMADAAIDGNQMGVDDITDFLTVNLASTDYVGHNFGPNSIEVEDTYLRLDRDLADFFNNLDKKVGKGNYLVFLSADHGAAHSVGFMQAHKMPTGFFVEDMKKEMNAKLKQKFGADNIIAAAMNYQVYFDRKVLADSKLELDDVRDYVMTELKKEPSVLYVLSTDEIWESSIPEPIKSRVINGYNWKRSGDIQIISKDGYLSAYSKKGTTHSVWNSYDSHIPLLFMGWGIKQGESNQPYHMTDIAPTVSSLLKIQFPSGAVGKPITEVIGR
P493G
oxyanion analog dissociation constant (tungstate, free oxyanion; microfluidic competitive inhibition; in vitro, cell-free expressed; not given, derived from inhibition constants, unchanged parent 2230 nM; lower = stronger binding): 2.18 µM

A few entries again (series 1):
AAATTACTAAGTTTTCACGTGTTTTACCCCGTATGAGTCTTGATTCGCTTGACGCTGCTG: 1280 a.u.
GCACCAGGAAGTTGTCATGCTTGATGCTCGGCTCCCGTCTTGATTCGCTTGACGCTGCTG: 72.2 a.u.
